Published values collected from several papers.
Numbered parts are unrelated; each lists some results of a single study.

Block 1 — technique: RNA Bind-n-Seq; form: RNA; matrix: in vitro; tested at: 200 nM; notes: whole 134-nt RNA, ends assumed; added: 150 mM LiCl; baseline: input library; direction: higher = stronger binding; measurement: log2 enrichment; library: 7-deaza-guanosine replaces G
Target: Fragile X messenger ribonucleoprotein 1, C-terminal low-complexity region (Fmr1, Mus musculus, UniProt P35922)
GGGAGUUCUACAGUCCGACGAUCUGGAAUAAGCCUGGUGCUUUCUGGCUAUGUUUGUCAUAGGCUGACCUGGAUAUCACCGAAAUAAACAAACUAACAGCAGAAGCUAUUCAGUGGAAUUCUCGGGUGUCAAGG: -1.83
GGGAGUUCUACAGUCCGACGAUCUUAGUGAAUGUAUAGAAGGAGUAAAGGUAGAGCACAAUCCUGACCUGUCAGUUACUGUCAGCACCAAAAAAUCCCACCAGACAUGGACCUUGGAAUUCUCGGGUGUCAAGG: 1.16
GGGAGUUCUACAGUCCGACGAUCUCAAGUCCUGUGCUACACAUCGUAUGUACCGAAUCGGUUUUUUUGGAGGAAAGGAAAGUAUUAUGUUACGCCGUUCGGAUCUGCACUUCCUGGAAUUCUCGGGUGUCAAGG: -0.355
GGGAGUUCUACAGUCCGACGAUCCACAGACAACACGCACCCACACAGACACAGAGGGAAGGGGUUGGGAUGCGGACAGGGUGCACAGCAGGGCGGGGUAGGACCCCAGCCCCUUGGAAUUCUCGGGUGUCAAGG: -1.55
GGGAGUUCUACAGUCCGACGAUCCUGUGCUACACAUCGUAUGUACCGAAUCGGGCCCCCCCGGCCCCCCCGGGGCCCCCCCGGGGAAAGUAUUAUGUUACGCCGUUCGGAUCUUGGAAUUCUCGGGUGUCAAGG: 0.252
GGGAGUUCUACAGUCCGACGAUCUCAAGUCCUGUGCUACACAUCGUAUGUACCGAAUCGGAAAGGGAAAGGGAAAGGGAAAGUAUUAUGUUACGCCGUUCGGAUCUGCACUUCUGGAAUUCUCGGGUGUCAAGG: -0.625
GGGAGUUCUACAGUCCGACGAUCCAAGUCCUGUGCUACACAUCGUAUGUACCGAAUCGGGGAAAGGGGAGGGGAGGGGAAAGUAUUAUGUUACGCCGUUCGGAUCUGCACUUCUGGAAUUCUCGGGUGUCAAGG: 0.543
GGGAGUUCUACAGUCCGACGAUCAAGUCCUGUGCUACACAUCGUAUGUACCGAAUCGGGAAAAAGGGAAAGGGUUUGGGAAAGUAUUAUGUUACGCCGUUCGGAUCUGCACUUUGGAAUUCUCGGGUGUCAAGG: -2.47
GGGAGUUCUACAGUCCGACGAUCGUCCUGUGCUACACAUCGUAUGUACCGAAUCGGGAAAAAGGGAAAAAGGGGAAAAAGGGAAAGUAUUAUGUUACGCCGUUCGGAUCUGCAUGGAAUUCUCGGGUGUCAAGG: 0.604
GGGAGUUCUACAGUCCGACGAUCACCAUGCAGGUGGGCAUCUUUGGGAAGUGGGGCAAGGGGGGGAUAGGGAGGGGGGUAAGACUUUGGGAACAGGUGGUCCCAGGUCGUUUCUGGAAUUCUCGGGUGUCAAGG: 1.27
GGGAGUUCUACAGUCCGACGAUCCUCAAGUCCUGUGCUACACAUCGUAUGUACCGAAUCGGUGGUUUGGAAAAAGGAAAGUAUUAUGUUACGCCGUUCGGAUCUGCACUUCCAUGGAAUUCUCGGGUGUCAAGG: 0.0371

Block 2 — technique: protein-binding microarray; form: double-stranded DNA, one strand shown; matrix: in vitro; tested at: 0.8 µM; notes: whole 60-bp probe, no competitor; direction: higher = stronger binding; measurement: fluorescence intensity
Target: Centromere-binding protein 1, full length, N-terminal tag (CBF1, Saccharomyces cerevisiae, UniProt P17106, residues 1-351)
Sequence of UniProt P17106 (whole entry, looked up): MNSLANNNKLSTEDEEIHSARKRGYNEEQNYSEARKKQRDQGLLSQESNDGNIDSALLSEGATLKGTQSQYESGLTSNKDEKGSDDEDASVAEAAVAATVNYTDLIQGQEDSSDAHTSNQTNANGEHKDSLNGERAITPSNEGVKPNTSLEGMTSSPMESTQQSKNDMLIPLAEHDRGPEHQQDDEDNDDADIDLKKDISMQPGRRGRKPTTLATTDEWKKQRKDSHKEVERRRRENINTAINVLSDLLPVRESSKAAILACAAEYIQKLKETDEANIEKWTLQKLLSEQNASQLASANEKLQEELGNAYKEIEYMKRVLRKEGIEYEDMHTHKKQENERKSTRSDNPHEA
CCTAACTACTATATTGACGTGTAATAGCTTCGTACAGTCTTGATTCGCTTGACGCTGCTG: 529 a.u.
CTAACTCTGCATCAGCACGCGGGCTCTGGAAGGTTCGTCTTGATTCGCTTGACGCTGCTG: 538 a.u.
GAATAGAAGAGTGTGCACATGCTTGGTTTGGCGTAGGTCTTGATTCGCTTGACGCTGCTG: 798 a.u.
TGTACGAAGCTATCACAGCACGTTATAGTAGTTAGGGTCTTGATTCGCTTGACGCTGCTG: 634 a.u.
CCTAACTACTATAATCAGGTGATATAGCTTCGTACAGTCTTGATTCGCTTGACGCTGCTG: 2300 a.u.
GAAGGAATCACGCGGCACGTCTTCTGGGGACTTTAGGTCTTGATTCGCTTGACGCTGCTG: 1380 a.u.
CTATTGATGAAATAGCACGTTCCCTTTGTTTGTTTCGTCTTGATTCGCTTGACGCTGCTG: 647 a.u.
TGTACGAAGCTATAGCACATGCTTATAGTAGTTAGGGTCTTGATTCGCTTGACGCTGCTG: 701 a.u.
GAACTTCCTGGACCTCATGTGATACTATACCAGTAGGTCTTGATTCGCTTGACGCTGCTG: 1010 a.u.
CTATCCAGGCTGCGTCACCCGGATTAATGTTGTTTCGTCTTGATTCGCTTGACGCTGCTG: 527 a.u.
CTACTGTAGCAATGGAAGCTGATGTACCCCAAATTCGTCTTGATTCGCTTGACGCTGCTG: 556 a.u.
CTAACTAAAACTATGTGCGTGATAAATGGTTCTTTCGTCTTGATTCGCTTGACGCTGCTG: 616 a.u.
CTAGATCCCATCCAACACACGTGTTAAAATGACTTCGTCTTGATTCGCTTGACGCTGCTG: 4710 a.u.
CTAAAATTCCCACATCACGTGAATCAGGAGGCGTTCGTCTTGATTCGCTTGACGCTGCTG: 12500 a.u.
CCTAACTACTATATTCACGTAGAATAGCTTCGTACAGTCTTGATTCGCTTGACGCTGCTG: 623 a.u.
CTAACCACACACTTTAACATCAGAAGAAAACTTTTCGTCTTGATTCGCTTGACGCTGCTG: 531 a.u.

Block 3 — target: UBE2S UBC core domain (UniProt Q16763); technique: yeast two-hybrid; matrix: yeast; notes: mostly zero background; baseline: not given; direction: higher = stronger interaction; measurement: lacZ reporter activity
B1: RNF43 RING domain (UniProt Q68DV7); chain SGSSCSSAPVCAICLEEFSEGQELRVISCLHEFHRNCVDPWLHQHRTCPLCMFNITEGDSFS
B2: MSL2 RING domain (UniProt Q9HCI7); chain LLPYFRQSLSCCVCGHLLQDPIAPTNSTCQHYVCKTCKGKKMMMKPSCSWCKDYEQFEENKQ
B3: TRIM35 RING domain (UniProt Q9UPQ4); chain PSRSFKEELLCAVCYDPFRDAVTLRCGHNFCRGCVSRCWEVQVSPTCPVCKDRASPADLRT
B4: TRIM10 RING domain (UniProt Q9UDY6); chain SVTSLADEVNCPICQGTLREPVTIDCGHNFCRACLTRYCEIPGPDLEESPTCPLCKEPFRPGSFRP
B5: TRIM15 RING domain (UniProt Q9C019); chain SLKVVHELPACTLCAGPLEDAVTIPCGHTFCRLCLPALSQMGAQSSGKILLCPLCQEEEQAETPMA
B6: RNF14 RING domain (UniProt Q9UBS8); chain IKCFNSKLFLCSICFCEKLGSECMYFLECRHVYCKACLKDYFEIQIRDGQVQCLNCPEPKCPSVATPGQVK
B7: RNF112 RING domain (UniProt Q9ULX5); chain QPMAPRELPTCSICLERLRDPISLDCGHDFCIRCFSTHRLPGCEPPCCPECRKICKQKRGLR
B8: RNF175 RING domain (UniProt Q8N4F7); chain LPTRSLSDNICAVCGQKIIVELDEEGLIENTYQLSCNHVFHEFCIRGWCIVGKKQTCPYCKEKVDLKRMIS
B9: RNF149 RING domain (UniProt Q8NC42); chain EKGIDVDAENCAVCIENFKVKDIIRILPCKHIFHRICIDPWLLDHRTCPMCKLDVIKALGYW
Residues (chain): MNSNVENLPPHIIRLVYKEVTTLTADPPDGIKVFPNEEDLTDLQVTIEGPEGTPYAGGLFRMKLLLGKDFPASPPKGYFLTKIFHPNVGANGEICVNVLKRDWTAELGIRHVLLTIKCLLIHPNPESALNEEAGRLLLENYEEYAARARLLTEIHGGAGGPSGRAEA
B1 (RNF43 RING domain): 0
FLKKLEQSFMCVCCQELVYQPVTTECFHNVCKDCLQRSFKAQVFSCPACRHDLGQNYIMI (UHRF2 RING domain (UniProt Q96PU4)): 0
B2 (MSL2 RING domain): 0
QLQDEEDDSLCRICMDAVIDCVLLECGHMVTCTKCGKRMSECPICRQYVVRAVHVF (RNF34 RING domain (UniProt Q969K3)): 0
B3 (TRIM35 RING domain): 0
B4 (TRIM10 RING domain): 0
SYEDKSNDFVCPICFDMIEEAYMTKCGHSFCYKCIHQSLEDNNRCPKCNYVVDNIDHLY (COP1 RING domain (UniProt Q8NHY2)): 0
B5 (TRIM15 RING domain): 0
B6 (RNF14 RING domain): 0
B7 (RNF112 RING domain): 0
B8 (RNF175 RING domain): 0
B9 (RNF149 RING domain): 0

Block 4 — technique: RNA Bind-n-Seq; form: RNA; matrix: in vitro; tested at: 365 nM; baseline: no-protein control; direction: higher = stronger binding; measurement: RBNS enrichment (R)
Target: RNA binding protein fox-1 homolog 2, RRM domain, GST-SBP tag (RBFOX2, Homo sapiens, UniProt O43251-10, residues 100-194)
Notes: natural RNA segment, single round, ends assumed
Construct (chain): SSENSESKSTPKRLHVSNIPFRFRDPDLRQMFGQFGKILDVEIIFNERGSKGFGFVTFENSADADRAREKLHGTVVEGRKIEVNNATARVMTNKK
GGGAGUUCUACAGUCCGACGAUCGGGCCAGGCCCAAGGUCCCCUUGCUGUGUGCAGCCCAGGGACUUGGUACCAUGCAUCCCAGCUGCUCUAGUCAUGGCUAAAAGGGGCCAAGAUACAGCUCAGGCCUUGGCUGGAAUUCUCGGGUGCCAA: 0.376
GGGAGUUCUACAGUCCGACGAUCAGAAGGAGGGCCCAGGCACUUUCUGUUUGAACCCCUGUCAUGAUCACAGUGUCAGAGACGCGUCCUCUUUCUUGGGGAAGUUGAGGAGUGCCCUUCAGAGCCAGUAGCAGUGGAAUUCUCGGGUGCCAA: 0.477
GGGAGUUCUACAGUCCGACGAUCUGAGUGUUUCCACUCAAAAUAUGUCAACUUAAAAAAAAAUAGGCCCUUUCAUAAAAACCAAACUGUAGCAAGAUGCAAAUGCAUGGCAAAUCCUGUCGGUCUCCAGUUGGUGGAAUUCUCGGGUGCCAA: 0.971
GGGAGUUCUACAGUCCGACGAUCAGGGCUGGGCCACUGCACAGUUUGUCUGUCCCCGUUGGACUCUUGAGCUCCUCUGGGAAGGCCUUUCCCUUGCCGGCUGUGCAUUGUGGCCAGGACUGGUAGCAACAGAGUGGAAUUCUCGGGUGCCAA: 0.343
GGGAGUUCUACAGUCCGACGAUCCCCUGCUGUAUCAUAAAGCACACACUUAGCGCUCUGGAGCCGGACGGUGGCUCCACCACUUCCGCAGGCCUGGAAACUUCCUUCUCCGGAGGACCUUUUACUAAAAGGUAUGGAAUUCUCGGGUGCCAA: 0.616
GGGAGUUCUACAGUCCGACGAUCUAUCUUUUUUCUCACUUAUUUUUGCGGUGAAAGUCGAGGGCAUGCAAGAGUUUCUCUUCCAGAAGCCAAGAGGAGAACAAAGGUCCUAAUGCUGUACUAUUCCACCCUUUUGGAAUUCUCGGGUGCCAA: 2.16
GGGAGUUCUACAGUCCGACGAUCCAAGUGAUUAAGUGUGUAUUUGUACCCUAGAUGAUAUGAACCAGCAGUCUUGUUUUGGCAUCAUCCUCAUCAUGUUGUAUUCCAGCUUCUUAAGUGGAAGGAAAAGAGUGUGGAAUUCUCGGGUGCCAA: 0.711
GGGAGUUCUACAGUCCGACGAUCAAUGGAGACUUCCGGAUCCUGUCAGGGUGUCCCCCAUGCCUGGAAGAGGAGCUGGUGGCUGCCAGCCCUGGGGCCCGGCACAGGCCUGGGCCUUCCCCUUCCCUCAAGCCUGGAAUUCUCGGGUGCCAA: 0.171
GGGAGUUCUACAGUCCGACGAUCAAGUGUGGGUUUUGCCCUGAUUGUUGCAAAUACAAUUUCCACCUUCUGGAAAGGUAGGUUUGCUGUGGAGGAAAUAAUGUACUAGAUCAUUGUCACAGAAAAACCAACUAUGGAAUUCUCGGGUGCCAA: 0.345
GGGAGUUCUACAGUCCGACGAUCUCAUUAACUAAGAAUAAUAAAUUUGCUCCUAUCCUGGGUCACGUGCCACGGUAAGAUGUAUAGUAUGGCCAUCCACACUAAUUGUAGGAGGACAGCUAAAUGGACAGUCAUGGAAUUCUCGGGUGCCAA: 0.37
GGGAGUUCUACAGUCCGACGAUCGUGGUGUGUUUGCCUGGAAGUCCCUCGCCCACAGUGUGUGUUCACACCGACUCCACCUCAGAGCAUGGUGCCUCCGUUUUCCCUUCCUAGUGACCCCAGGUUUAGCAUCGUGGAAUUCUCGGGUGCCAA: 1.16
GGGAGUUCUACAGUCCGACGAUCCCUCUCAGUAGGGGGCUUUUAGAGCAGUUGAAAUCUGCAGAACUGAACCUCUGAGGGCCAAAAUAGGACAUUUGGGAACAACUCCUUAACCCAUGAACUAGCUGUAACAUUGGAAUUCUCGGGUGCCAA: 0.417

A few entries again (block 3):
B3 (TRIM35 RING domain): 0
B4 (TRIM10 RING domain): 0
SYEDKSNDFVCPICFDMIEEAYMTKCGHSFCYKCIHQSLEDNNRCPKCNYVVDNIDHLY (COP1 RING domain (UniProt Q8NHY2)): 0
B5 (TRIM15 RING domain): 0
